Experimental data gathered from unrelated publications.
Every numbered part comes from another study and shows a few of its results, in no order.

Sample 1 — method: protein binding microarray; form: double-stranded DNA, one strand shown; matrix: in vitro; tested at: not given; relative to: not given; direction: higher = stronger binding
Target: Histone acetyltransferase KAT6A, both winged helices, GST fusion (KAT6A, Homo sapiens, UniProt Q92794, residues 1-181)
Notes: 8-mer, flanks averaged, mean of 2 arrays, mostly near background
Construct (chain): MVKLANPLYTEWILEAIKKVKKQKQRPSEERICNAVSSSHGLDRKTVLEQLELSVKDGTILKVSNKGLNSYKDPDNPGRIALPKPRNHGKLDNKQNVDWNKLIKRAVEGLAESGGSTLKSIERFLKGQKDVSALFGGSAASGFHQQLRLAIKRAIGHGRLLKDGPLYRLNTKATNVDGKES
Oligonucleotide	E-score
ATTCTTCG	-0.0113
GCGCCTAC	0.204
GCCATTCC	0.0127
ACGAACTA	-0.206
ACGACCCT	-0.133
GCTAATGA	-0.0922
AACGAGGA	-0.189
AGGCGGTG	0.0457
GCTGTACA	0.0234
CCAGCAAA	-0.114
CCGTCTCA	0.152
AGTTCTAC	-0.132
CCCTAGCC	-0.0904
GATGTTAA	-0.127
CTAGCACA	-0.0808
AGTTAAGA	-0.152
GGGCTGAC	0.0253
CCGAGTCC	0.0968
CTCTGGAA	-0.0622
CTATACAC	-0.062
GTTGCCGA	0.159
CACTCGGC	0.211
CTCTACAA	-0.143

Sample 2 — method: RNA Bind-n-Seq; form: RNA; matrix: in vitro; tested at: 1 µM; notes: whole 134-nt RNA, ends assumed; with: 150 mM KCl; relative to: input library; direction: higher = stronger binding
Target: Ras GTPase-activating protein-binding protein 1, RRM domain (G3BP1, Homo sapiens, UniProt Q13283)
Sequence of UniProt Q13283 (whole entry, looked up): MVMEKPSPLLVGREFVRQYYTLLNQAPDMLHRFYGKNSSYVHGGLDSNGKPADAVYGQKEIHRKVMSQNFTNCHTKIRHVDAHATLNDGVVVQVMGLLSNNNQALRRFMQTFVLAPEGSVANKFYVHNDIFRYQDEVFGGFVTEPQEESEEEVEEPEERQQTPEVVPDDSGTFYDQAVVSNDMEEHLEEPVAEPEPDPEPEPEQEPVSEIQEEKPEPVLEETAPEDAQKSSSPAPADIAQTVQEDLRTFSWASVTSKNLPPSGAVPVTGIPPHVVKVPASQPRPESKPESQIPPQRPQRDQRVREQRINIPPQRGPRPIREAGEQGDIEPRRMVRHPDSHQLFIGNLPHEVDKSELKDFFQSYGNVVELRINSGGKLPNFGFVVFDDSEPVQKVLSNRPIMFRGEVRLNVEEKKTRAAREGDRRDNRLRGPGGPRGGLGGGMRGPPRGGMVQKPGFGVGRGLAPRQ
Shared flanks, not repeated: GGGAGUUCUACAGUCCGACGAUC … UGGAAUUCUCGGGUGUCAAGG
Oligonucleotide	log2 enrichment
UGGCCCUGGUGGCAUGCGGGGAGGAAGAGGUGGCCUCAUGGAUCGUGGUGGUCCCGGUGGAAUGUUCAGAGGUGGGCGUGGUGGAGACAG	2.05
AAGUCCUGUGCUACACAUCGUAUGUACCGAAUCGGGUUUUUUUGGGAGGGAAAGGGAAAGUAUUAUGUUACGCCGUUCGGAUCUGCACUU	0.456
UCCUGUGCUACACAUCGUAUGUACCGAAUCGGAAAAAAAGGAAAAAAAGGGAAAAAAAGGAAAGUAUUAUGUUACGCCGUUCGGAUCUGC	0.188
CUGUGCUACACAUCGUAUGUACCGAAUCGGGUUUUUUUGGGAAAAAAAGGGUUUUUUUGGGAAAGUAUUAUGUUACGCCGUUCGGAUCUG	-0.451
ACCAUGCAGGUGGGCAUCUUUGGGAAGUGGGGCAAGGGGGGGAUAGGGAGGGGGGUAACACUUUUGGAACAGGUGGUCCCAGGUCGUUUC	1.09
UAACUUUAGAGGAGGAUCUGAUGGAUAUGGCAGUGGUCGUGGAUUUGGGGAUGGCUAUAAUGGGUAUGGAGGAGGACCUGGAGGUGGCAA	-0.628
CAAGUCCUGUGCUACACAUCGUAUGUACCGAAUCGGAAAAGGGAAAAGGGAAAAGGAAAGUAUUAUGUUACGCCGUUCGGAUCUGCACUU	-0.147
CAAGUCCUGUGCUACACAUCGUAUGUACCGAAUCGGCCCCGGGCCCCGGCCCCGGGAAAGUAUUAUGUUACGCCGUUCGGAUCUGCACUU	-0.8
CUGUGCUACACAUCGUAUGUACCGAAUCGGGAAAAAAAGGGGAAAAAAAGGAAAAAAAGGGGAAAGUAUUAUGUUACGCCGUUCGGAUCU	0.184

Sample 3 — method: protein-binding microarray; form: double-stranded DNA, one strand shown; matrix: in vitro; tested at: 250 nM; notes: 60-bp whole probe; with: salmon DNA 0.4 mg/ml; relative to: random background probes; direction: higher = stronger binding; shared flanks, not repeated: GCCTAGCAC … GTCTTGATTCGCTTGACGCTGCTG
Target: Interferon regulatory factor 7, full length, phosphomimetic (IRF7, Homo sapiens, UniProt Q92985, residues 1-503, S101K/S471D/S472D/S475D/S476D/S477D/S483D/S484D/S487D)
Residues (chain): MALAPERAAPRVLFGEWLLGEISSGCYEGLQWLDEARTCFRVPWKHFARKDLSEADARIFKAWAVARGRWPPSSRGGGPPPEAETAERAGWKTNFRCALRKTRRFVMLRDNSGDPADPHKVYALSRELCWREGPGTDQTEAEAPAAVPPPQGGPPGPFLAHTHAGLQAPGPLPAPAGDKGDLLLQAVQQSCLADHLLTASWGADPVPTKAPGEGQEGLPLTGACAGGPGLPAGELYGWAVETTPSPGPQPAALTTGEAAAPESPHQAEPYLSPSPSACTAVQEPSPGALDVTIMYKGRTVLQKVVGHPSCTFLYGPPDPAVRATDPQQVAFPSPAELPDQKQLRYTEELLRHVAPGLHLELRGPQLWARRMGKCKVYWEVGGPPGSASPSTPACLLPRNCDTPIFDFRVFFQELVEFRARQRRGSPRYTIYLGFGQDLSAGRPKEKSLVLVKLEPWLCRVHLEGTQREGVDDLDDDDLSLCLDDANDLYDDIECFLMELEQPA
Oligonucleotide	log fluorescence
GACGATATCAGAATGGAGACGTGCTAG	-0.133 z-score
TTAGGTATCCTGCTGCTTTAGTGCTAG	-0.388 z-score
GAGGGTATCGACTTTCGGGACGTGCTA	0.453 z-score
TTAGAACTGAGGTATCGATTAGTGCTA	0.389 z-score
TCACTTCTCCCTTTCAGTTTGTGCTAG	1.81 z-score
GACGAACTGGGGACTGGAGCCGTGCTA	-0.652 z-score
GACGGACTGGGTTTCGGGAAGTGCTAG	0.694 z-score
TTAGATATCGGGCCTGGATTAGTGCTA	0.0259 z-score
GACGGTTTCCTACTGCTGACGTGCTAG	1.55 z-score
TTAGGTTCCAGTTTCGGTTAGTGCTAG	9.17 z-score
GACGGTAGCCTACTGCTGACGTGCTAG	-0.893 z-score
TTAGATCTCAGTCTCAATTAGTGCTAG	0.325 z-score
TTAGGTTTCCTTCTCCTATAGTGCTAG	3 z-score
TTAGACTTCGGGACTGGATTAGTGCTA	-0.364 z-score
TGTTTCCTCTTTCTTTGCTTGTGCTAG	5.97 z-score
TTAGATCTCAGATTCGATTAGTGCTAG	2.59 z-score
GACGATTTCACTATCGAGACGTGCTAG	0.496 z-score
TTAGGTTCCCTTTTACTTTAGTGCTAG	4.37 z-score
TCATTTTTCTACTTCTCACTGTGCTAG	2.36 z-score

Sample 4 — method: RNA Bind-n-Seq; form: RNA; matrix: in vitro; tested at: 365 nM; relative to: no-protein control; direction: higher = stronger binding
Target: RNA binding protein fox-1 homolog 2, RRM domain, GST-SBP tag (RBFOX2, Homo sapiens, UniProt O43251-10, residues 100-194)
Notes: natural RNA segment, single round, ends assumed
Shared flanks, not repeated: GGGAGUUCUACAGUCCGACGAUC … UGGAAUUCUCGGGUGCCAA
Construct (chain): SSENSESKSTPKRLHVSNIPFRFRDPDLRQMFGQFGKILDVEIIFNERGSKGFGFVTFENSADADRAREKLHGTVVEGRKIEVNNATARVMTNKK
Oligonucleotide	RBNS enrichment (R)
ACUUGGUAAUUCAUUAACUCUUUGUAUCUCAGAGUGAAGAUUUGACUUAAACUUUGCAUUGAAAGUUUGGAAAAUUACUUGAAAUAAAAAAAGAUUUUUAUACAAAUACA	0.78
AAAUCUGAAGGUUAAUCCAAACUCACAUGUUUUAGCAUAUUUGAGAAAAAAAAACUACCUUCAAUAUCAGCCUUUUAAAUUUCAUGAAGAUUUUGGUGAGGAAUAAUAGU	0.482
ACUUUAGAGCUAGGAUGAGGGCACCUCUCCUCCUCCAUGGAUCACCAAGGGGGCUCUUGCAUUGAGCAAUAUUGCCUUAUUUACUUUAGGGCACAAGCCAAGUCUUCAUG	0.271
UUAACUGGAAGAAAUUGUAUUGCUGCGUAGAAUCUGAACACACUGAGGCCACCUAGCAAGGUAGUAACUAGUCUAACCUGUGCUAACAUUAGGGCACAACCUGUUGGAUA	0.433
GUUUGUUUCUGGGUACUUUGCGCCUCUGGGGUGCUAGAGGUGGGGCAUGGUGGCUGGAAGUAAAACUGCCAACUCUGGCCCUCAGAACUCUCAGGUAUAGAAGCCCAGGA	0.367
UACCGUGACACCACGCAUGGCCAGAGCUAGCGUCCCUACUGCCUCCCGACUCCUCAGUGGAGGAGGAGCUGCGGUCCCUCUGGUGUCUGCCAUCCCCCUCCCUCCCUGGG	0.291
AAUAUCUGUCAUGAACCUGCCAAUUUGUACGUGUUAAGCAGCUGACAGAUGAUGCAAAAAAAACUAAGAUACACUGGAUUGUACUGGAUGAGUCUGAAAUUAGUGUUAAA	6.01
CCCAAGGUUAUAAGGCCUUGUCUUUCUCUUUGGAAUCAUAAAGUGGAACAGAGUCCCCAGAACUCAUGUGGCCAUUUCCGCCAGCAUCACUCCCCGGUGCCUAUGGGGUC	0.174

Some of these lines once more (sample 4):
Oligonucleotide	RBNS enrichment (R)
AAAUCUGAAGGUUAAUCCAAACUCACAUGUUUUAGCAUAUUUGAGAAAAAAAAACUACCUUCAAUAUCAGCCUUUUAAAUUUCAUGAAGAUUUUGGUGAGGAAUAAUAGU	0.482
ACUUUAGAGCUAGGAUGAGGGCACCUCUCCUCCUCCAUGGAUCACCAAGGGGGCUCUUGCAUUGAGCAAUAUUGCCUUAUUUACUUUAGGGCACAAGCCAAGUCUUCAUG	0.271
UUAACUGGAAGAAAUUGUAUUGCUGCGUAGAAUCUGAACACACUGAGGCCACCUAGCAAGGUAGUAACUAGUCUAACCUGUGCUAACAUUAGGGCACAACCUGUUGGAUA	0.433
GUUUGUUUCUGGGUACUUUGCGCCUCUGGGGUGCUAGAGGUGGGGCAUGGUGGCUGGAAGUAAAACUGCCAACUCUGGCCCUCAGAACUCUCAGGUAUAGAAGCCCAGGA	0.367
UACCGUGACACCACGCAUGGCCAGAGCUAGCGUCCCUACUGCCUCCCGACUCCUCAGUGGAGGAGGAGCUGCGGUCCCUCUGGUGUCUGCCAUCCCCCUCCCUCCCUGGG	0.291
AAUAUCUGUCAUGAACCUGCCAAUUUGUACGUGUUAAGCAGCUGACAGAUGAUGCAAAAAAAACUAAGAUACACUGGAUUGUACUGGAUGAGUCUGAAAUUAGUGUUAAA	6.01
